Experimental data collected from several papers.
A part holds a random share of what one study measured.
Chain of UniProt Q5S007 (whole entry, looked up): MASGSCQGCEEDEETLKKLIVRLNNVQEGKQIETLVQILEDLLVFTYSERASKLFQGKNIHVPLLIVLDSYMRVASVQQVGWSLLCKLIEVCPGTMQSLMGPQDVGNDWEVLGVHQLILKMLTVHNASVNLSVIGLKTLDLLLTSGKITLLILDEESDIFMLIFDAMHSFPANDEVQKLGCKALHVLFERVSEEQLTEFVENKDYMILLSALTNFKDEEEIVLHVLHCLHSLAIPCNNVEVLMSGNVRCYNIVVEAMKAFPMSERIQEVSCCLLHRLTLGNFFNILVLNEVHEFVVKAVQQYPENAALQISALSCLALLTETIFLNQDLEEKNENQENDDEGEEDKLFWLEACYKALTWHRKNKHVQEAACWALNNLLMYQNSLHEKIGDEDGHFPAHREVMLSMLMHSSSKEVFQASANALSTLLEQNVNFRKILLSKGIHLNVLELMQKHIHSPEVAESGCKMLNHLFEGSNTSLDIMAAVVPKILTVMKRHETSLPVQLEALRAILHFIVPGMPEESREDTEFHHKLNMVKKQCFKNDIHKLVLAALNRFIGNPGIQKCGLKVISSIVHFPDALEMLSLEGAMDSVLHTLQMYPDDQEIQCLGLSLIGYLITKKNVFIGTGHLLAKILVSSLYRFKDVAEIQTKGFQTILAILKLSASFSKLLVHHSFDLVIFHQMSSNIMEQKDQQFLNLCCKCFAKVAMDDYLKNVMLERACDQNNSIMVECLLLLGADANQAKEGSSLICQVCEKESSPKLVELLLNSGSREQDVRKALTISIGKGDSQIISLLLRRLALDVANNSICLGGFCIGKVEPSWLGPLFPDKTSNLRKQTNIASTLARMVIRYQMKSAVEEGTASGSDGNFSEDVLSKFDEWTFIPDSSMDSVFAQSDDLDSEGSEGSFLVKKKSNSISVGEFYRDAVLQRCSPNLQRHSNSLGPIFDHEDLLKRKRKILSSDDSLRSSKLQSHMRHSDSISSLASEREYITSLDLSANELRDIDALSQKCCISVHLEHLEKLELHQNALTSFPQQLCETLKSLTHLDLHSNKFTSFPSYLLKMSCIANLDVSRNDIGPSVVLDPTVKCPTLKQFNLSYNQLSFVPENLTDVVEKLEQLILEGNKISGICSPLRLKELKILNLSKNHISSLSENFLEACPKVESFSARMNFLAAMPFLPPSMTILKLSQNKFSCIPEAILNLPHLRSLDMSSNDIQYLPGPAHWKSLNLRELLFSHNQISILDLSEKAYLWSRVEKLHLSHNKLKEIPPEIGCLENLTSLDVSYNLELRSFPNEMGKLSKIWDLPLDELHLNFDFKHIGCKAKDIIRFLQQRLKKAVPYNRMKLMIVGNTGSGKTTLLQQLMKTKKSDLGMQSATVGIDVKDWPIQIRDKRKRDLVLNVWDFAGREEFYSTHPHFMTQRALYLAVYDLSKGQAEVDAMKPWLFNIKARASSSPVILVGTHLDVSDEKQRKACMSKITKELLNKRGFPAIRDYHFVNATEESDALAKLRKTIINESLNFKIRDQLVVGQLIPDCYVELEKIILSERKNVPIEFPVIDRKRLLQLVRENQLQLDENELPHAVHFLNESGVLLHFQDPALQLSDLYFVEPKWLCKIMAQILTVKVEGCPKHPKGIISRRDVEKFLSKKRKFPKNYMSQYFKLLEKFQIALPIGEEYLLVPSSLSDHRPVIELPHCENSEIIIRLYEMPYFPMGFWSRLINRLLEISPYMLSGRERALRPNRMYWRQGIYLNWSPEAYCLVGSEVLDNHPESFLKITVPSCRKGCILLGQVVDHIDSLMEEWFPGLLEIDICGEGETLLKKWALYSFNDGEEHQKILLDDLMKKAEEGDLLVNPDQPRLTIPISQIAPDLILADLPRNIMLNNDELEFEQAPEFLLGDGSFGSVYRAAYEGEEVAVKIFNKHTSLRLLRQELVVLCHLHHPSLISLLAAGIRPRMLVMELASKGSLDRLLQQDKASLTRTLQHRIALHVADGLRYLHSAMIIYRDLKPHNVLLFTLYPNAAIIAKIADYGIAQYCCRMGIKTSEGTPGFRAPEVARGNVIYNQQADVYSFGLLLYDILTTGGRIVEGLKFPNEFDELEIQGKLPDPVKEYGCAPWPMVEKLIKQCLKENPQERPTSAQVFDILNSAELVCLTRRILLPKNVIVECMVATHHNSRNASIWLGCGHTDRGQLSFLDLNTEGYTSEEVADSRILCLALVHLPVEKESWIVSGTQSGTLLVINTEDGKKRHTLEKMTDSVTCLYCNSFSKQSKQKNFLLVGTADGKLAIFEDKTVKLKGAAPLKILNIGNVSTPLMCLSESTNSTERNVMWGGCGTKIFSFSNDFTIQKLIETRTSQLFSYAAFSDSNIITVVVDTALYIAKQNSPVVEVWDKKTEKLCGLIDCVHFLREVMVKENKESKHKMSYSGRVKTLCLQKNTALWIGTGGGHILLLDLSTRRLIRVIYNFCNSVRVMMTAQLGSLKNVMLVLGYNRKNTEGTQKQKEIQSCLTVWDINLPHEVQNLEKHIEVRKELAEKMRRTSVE
Chain of UniProt P37023 (whole entry, looked up): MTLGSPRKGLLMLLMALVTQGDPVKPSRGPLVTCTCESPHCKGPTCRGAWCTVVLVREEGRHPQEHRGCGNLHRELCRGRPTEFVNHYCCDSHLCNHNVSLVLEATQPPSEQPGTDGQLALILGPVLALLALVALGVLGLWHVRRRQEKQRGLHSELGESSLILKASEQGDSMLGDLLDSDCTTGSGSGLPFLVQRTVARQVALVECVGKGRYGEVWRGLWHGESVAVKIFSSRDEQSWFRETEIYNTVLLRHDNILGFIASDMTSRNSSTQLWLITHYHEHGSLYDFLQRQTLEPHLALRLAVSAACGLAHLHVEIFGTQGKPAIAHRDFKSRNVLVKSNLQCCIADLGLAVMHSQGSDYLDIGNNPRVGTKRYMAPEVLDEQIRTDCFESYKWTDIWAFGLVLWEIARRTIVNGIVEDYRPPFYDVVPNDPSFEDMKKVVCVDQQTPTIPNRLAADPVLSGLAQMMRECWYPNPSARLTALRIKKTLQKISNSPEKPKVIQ
Chain of UniProt O14920 (whole entry, looked up): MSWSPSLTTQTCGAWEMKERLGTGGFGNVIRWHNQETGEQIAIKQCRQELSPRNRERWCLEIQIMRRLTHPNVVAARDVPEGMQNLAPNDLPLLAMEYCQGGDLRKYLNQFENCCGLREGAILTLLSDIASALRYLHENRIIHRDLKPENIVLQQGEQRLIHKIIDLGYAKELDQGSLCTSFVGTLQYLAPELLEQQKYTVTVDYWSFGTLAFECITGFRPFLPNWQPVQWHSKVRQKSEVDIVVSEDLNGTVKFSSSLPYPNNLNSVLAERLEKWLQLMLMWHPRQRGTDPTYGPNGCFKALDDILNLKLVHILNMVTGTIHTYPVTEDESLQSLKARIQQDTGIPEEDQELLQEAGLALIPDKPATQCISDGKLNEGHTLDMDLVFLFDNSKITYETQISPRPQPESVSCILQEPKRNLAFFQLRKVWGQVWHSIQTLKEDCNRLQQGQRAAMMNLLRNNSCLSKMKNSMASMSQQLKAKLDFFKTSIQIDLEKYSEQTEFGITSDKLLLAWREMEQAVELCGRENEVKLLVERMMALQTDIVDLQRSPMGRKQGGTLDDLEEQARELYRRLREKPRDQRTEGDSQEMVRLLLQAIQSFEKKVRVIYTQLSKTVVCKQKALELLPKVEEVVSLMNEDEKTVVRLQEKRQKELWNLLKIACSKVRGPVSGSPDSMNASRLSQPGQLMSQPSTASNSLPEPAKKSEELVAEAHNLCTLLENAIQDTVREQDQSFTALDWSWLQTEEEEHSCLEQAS

Block 1 — target: UBE2G1 UBC core domain (UniProt P62253); method: yeast two-hybrid; medium: yeast; setting: mostly zero background; reference: not given; direction: higher = stronger interaction; measurement: lacZ reporter activity
B1: RNF111 RING domain (UniProt Q6ZNA4); chain EGTEEDTEEKCTICLSILEEGEDVRRLPCMHLFHQVCVDQWLITNKKCPICRVDIEAQLPSE
B2: TRIM5 RING domain (UniProt Q9C035); chain ILVNVKEEVTCPICLELLTQPLSLDCGHSFCQACLTANHKKSMLDKGESSCPVCRISYQPENIRP
B3: TRAF5 RING domain (UniProt O00463); chain FVERLEERYKCAFCHSVLHNPHQTGCGHRFCQHCILSLRELNTVPICPVDKEVIKSQEVFK
B4: TRIM24 RING domain (UniProt O15164); chain EAARLNLLDTCAVCHQNIQSRAPKLLPCLHSFCQRCLPAPQRYLMLPAPMLGSAETPPPVPAPGSPVSGSSPFATQVGVIRCPVCSQECAERHII
Residues (chain): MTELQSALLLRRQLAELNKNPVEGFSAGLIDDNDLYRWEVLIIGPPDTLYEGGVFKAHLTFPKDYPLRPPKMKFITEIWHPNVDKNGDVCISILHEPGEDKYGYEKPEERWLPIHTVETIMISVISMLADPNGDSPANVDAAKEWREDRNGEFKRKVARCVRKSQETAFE
MPIRALCTICSDFFDHSRDVAAIHCGHTFHLQCLIQWFETAPSRTCPQCRIQVGKRTIIN (TRAIP RING domain (UniProt Q9BWF2)): 0
B1 (RNF111 RING domain): 0
B2 (TRIM5 RING domain): 0
FQGDVDEDLICPICSGVLEEPVQAPHCEHAFCNACITQWFSQQQTCPVDRSVVTVAHLRP (RNF41 RING domain (UniProt Q9H4P4)): 0
PAELEVQASECVVCLEREAQMIFLNCGHVCCCQQCCQPLRTCPLCRQDIAQRLRIY (LRSAM1 RING domain (UniProt Q6UWE0)): 0
DHGAVGQEMCCPICCSEYVKGEVATELPCHHYFHKPCVSIWLQKSGTCPVCRCMFPPPL (PJA1 RING domain (UniProt Q8NG27)): 0
B3 (TRAF5 RING domain): 0
B4 (TRIM24 RING domain): 0

Block 2 — observed: cell-free assay; method: competition with immobilised ligand; concentration: 1 µM; measurement: remaining binding
Structure (SMILES): O=C(NC[C@@H]1[C@H]2CN(C(=O)OCc3cc(C(F)(F)F)cc(C(F)(F)F)c3)C[C@@H]12)c1ccc2[nH]nnc2c1
Inhibitor of nuclear factor kappa-B kinase subunit beta (IKBKB, Homo sapiens, UniProt O14920): 88%
Leucine-rich repeat serine/threonine-protein kinase 2 (LRRK2, Homo sapiens, UniProt Q5S007): 91%
Activin receptor type-1-like (ACVRL1, Homo sapiens, UniProt P37023): 100%
Serine/threonine-protein kinase 17A (STK17A, Homo sapiens, UniProt Q9UEE5): 95%

Block 3 — method: protein-binding microarray; form: double-stranded DNA, one strand shown; medium: in vitro; concentration: 940 nM top; setting: 60-bp whole probe; added: salmon DNA 0.4 mg/ml; reference: random background probes; direction: higher = stronger binding; measurement: fitted relative affinity; all sequences stand within: GCCTAGCAC … GTCTTGATTCGCTTGACGCTGCTG
Target: Interferon regulatory factor 5, full length, phosphomimetic (IRF5, Homo sapiens, UniProt Q13568-2, residues 1-514, S451D/S453D/S456D/S462D)
GACGTACTGGACTATCGGGACGTGCTA: -0.475 z-score
GACGGCCTGCTACTGCTGACGTGCTAG: -0.632 z-score
CCTCAGCTCCCTTTCTCTCTGTGCTAG: 0.795 z-score
TTAGGTTCCGGTCTCGGTTAGTGCTAG: 4.67 z-score
GACGATCTCAGTCTCGAGTCGTGCTAG: 2.61 z-score
GACAGACTGGGTATCGGGACGTGCTAG: 0.866 z-score
GTGTTATTAAAACTTCATGAAGTGCTA: -0.321 z-score
GACGGACTGGGGTATCGGGGCGTGCTA: 0.57 z-score

Block 4 — observed: enzyme activity; action: inhibitor; concentration: 0.5 µM; reference: control; measurement: remaining activity
Target: Platelet-derived growth factor receptor alpha (PDGFRA, Homo sapiens, UniProt P16234)
Chain of UniProt P16234 (whole entry, looked up): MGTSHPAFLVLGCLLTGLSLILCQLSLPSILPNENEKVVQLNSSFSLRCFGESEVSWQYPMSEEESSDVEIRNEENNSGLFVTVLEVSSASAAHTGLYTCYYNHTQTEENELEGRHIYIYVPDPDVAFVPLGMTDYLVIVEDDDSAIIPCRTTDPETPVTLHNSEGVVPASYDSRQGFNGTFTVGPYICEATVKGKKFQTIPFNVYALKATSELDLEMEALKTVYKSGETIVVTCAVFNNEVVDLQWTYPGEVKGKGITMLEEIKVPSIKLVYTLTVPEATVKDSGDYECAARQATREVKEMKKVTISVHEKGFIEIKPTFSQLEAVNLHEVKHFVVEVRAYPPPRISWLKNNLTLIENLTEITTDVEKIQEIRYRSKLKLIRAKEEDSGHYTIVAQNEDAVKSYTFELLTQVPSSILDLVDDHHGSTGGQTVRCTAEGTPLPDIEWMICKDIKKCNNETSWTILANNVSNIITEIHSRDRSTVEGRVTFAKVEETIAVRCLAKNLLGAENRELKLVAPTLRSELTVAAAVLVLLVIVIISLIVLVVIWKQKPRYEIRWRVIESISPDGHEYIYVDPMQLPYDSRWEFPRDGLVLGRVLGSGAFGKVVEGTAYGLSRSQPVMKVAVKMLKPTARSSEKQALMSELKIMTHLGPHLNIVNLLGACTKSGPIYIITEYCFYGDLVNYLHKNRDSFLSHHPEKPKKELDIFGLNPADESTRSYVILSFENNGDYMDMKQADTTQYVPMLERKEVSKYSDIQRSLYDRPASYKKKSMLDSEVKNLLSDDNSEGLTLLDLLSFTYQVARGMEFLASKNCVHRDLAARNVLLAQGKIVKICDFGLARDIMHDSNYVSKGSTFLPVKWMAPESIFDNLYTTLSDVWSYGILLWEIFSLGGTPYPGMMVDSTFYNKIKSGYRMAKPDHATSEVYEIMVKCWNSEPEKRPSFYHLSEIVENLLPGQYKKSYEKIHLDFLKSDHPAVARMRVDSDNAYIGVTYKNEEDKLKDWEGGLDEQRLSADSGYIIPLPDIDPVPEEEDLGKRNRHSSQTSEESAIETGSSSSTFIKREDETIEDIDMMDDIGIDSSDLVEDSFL
COc1ccc(CNC(=O)Nc2ncc([N+](=O)[O-])s2)cc1: 93%
CC(C)[C@H](CO)Nc1nc(Nc2cc(N)cc(Cl)c2)c2ncn(C(C)C)c2n1: 89.4%
CNC(=O)c1cc(Oc2ccc(NC(=O)Nc3ccc(Cl)c(C(F)(F)F)c3)cc2)ccn1: 7.77%
Cc1nc(-c2ccccc2)c(-c2ccncc2)o1: 96.3%
O=C1NC(=O)C(c2cn(CCCn3ccnc3)c3ccccc23)=C1Nc1ccccc1: 94.1%
Cn1c2ccccc2c2c3c(c4c5ccccc5n(CCC#N)c4c21)CNC3=O: 83.5%
Cc1ccc(NC(=O)c2ccc(CN3CCN(C)CC3)cc2)cc1Nc1nc(-c2cccnc2)cs1: 1.64%
COc1cc2nccc(Oc3ccc(NC(=S)NC(=O)c4ccccc4C)cc3)c2cc1OC: 12.5%
NCCNc1ncc(C(N)=O)c(Nc2cccc(C(F)(F)F)c2)n1: 95.4%
Nc1ccc2ncnc(NCCc3ccc(Oc4ccccc4)cc3)c2c1: 98.5%
COc1cc2ncnc(Nc3ccc(F)c(Cl)c3)c2cc1OCCCN1CCOCC1: 97%
Nc1ncnc2n[nH]c(Nc3ccc(F)cc3)c12: 101%
OCC(O)CCON=C1C(c2c(O)[nH]c3ccccc23)=Nc2ccccc21 (stereo not shown): 76.7%
O=C1NC(=O)C(c2cn(CCCO)c3ncccc23)=C1c1cnccn1: 113%

A few entries again (block 4):
O=C1NC(=O)C(c2cn(CCCn3ccnc3)c3ccccc23)=C1Nc1ccccc1: 94.1%
Cc1nc(-c2ccccc2)c(-c2ccncc2)o1: 96.3%
COc1cc2ncnc(Nc3ccc(F)c(Cl)c3)c2cc1OCCCN1CCOCC1: 97%
NCCNc1ncc(C(N)=O)c(Nc2cccc(C(F)(F)F)c2)n1: 95.4%
